Measurements collected from several papers.
Compare with care: the assays were run in different laboratories. Numbers after ± are the reported error. Converted amounts (≈) assume the structure as drawn.

Compound	organism	assay	test system	setting	how to read	measurement	result
O=C(c1ccc(Cl)c([N+](=O)[O-])c1)N1CCN(c2ccccc2F)CC1	Saccharomyces cerevisiae	cell growth	wild type			IC50	2.87 ± 0.6 µM
CCC1(C)CCN(Cc2cc(N(C)C)c3c(c2O)C(=O)C2=C(O)[C@]4(O)C(=O)C(C(N)=O)=C(O)[C@@H](N(C)C)[C@@H]4C[C@@H]2C3)CC1	Streptococcus pneumoniae		157E	50% mouse serum		MIC	0.25 µg/mL (≈ 0.419 µM)
COc1cc(/C=C/c2cc(/C=C/c3ccc(O)c(OC)c3)[nH]n2)ccc1O	Spodoptera frugiperda	cell growth or viability, MTT	Sf9	100 µM, 72 h		inhibition	71.3%
CN(Cc1cc(N(C)C)c2c(c1O)C(=O)C1=C(O)[C@]3(O)C(=O)C(C(N)=O)=C(O)[C@@H](N(C)C)[C@@H]3C[C@@H]1C2)CC(C)(C)C	Streptococcus pneumoniae	microbial growth, broth dilution				MIC	0.25 µg/mL (≈ 0.438 µM)
CC[C@H](C)[C@H](NC(=O)[C@H](CCCCN)NC(=O)[C@H](CC(N)=O)NC(=O)[C@H](Cc1c[nH]c2ccccc12)NC(=O)[C@H](Cc1ccccc1)NC(=O)[C@H](CCCCN)NC(=O)[C@H](CCCNC(=N)N)NC(=O)[C@H](CC(C)C)NC(=O)[C@H](Cc1c[nH]c2ccccc12)NC(=O)[C@H](CCCCN)NC(=O)[C@H](CCCNC(=N)N)NC(=O)[C@H](CC(C)C)NC(=O)CNC(C)=O)C(=O)N[C@@H](CCCCN)C(=O)N[C@@H](CCCNC(=N)N)C(N)=O	all bacteria tested					geometric mean MIC	3.94 µM
C=C(C)[C@@H]1CC[C@]2(C(=O)NC(CO)Cc3ccccc3)CC[C@]3(C)[C@H](CC[C@@H]4[C@@]5(C)CCCNC(C)(C)[C@@H]5CC[C@]43C)[C@@H]12 (stereo partly shown)	Human cytomegalovirus	cytopathic effect	HFF, AD169			EC90	> 1.2 µM
COc1ccc(Nc2c(C#N)cnc3ccc(Cl)cc23)cc1	Trypanosoma cruzi	growth	Y, epimastigote	72 h		IC50	19.5 ± 2.5 µM
CCCCCc1ccc2c(c1O)C(c1ccc(OC)c(OC)c1)OC2=O (stereo not shown)	Naegleria fowleri	parasite growth, resazurin		48 h		IC50	13 µM
CCOC(=O)c1c(-c2ccc(C)cc2)oc2ncccc12	Trypanosoma cruzi		3T3 host cells, Tulahuen beta-galactosidase	6 days		EC50	8.6 µM
CN(C)c1cc(CN2CCOCC2)c(O)c2c1C[C@H]1C[C@H]3[C@H](N(C)C)C(O)=C(C(N)=O)C(=O)[C@@]3(O)C(O)=C1C2=O	Streptococcus pneumoniae	microbial growth, broth dilution				MIC	0.25 µg/mL (≈ 0.449 µM)
C=C(C)[C@@H]1CC[C@]2(C(=O)N3CCN(C)CC3)CC[C@]3(C)[C@H](CC[C@@H]4[C@@]5(C)CCCNC(C)(C)[C@@H]5CC[C@]43C)[C@@H]12	Human cytomegalovirus	cytopathic effect	HFF, AD169			EC90	> 30 µM
COC(=O)c1cccc(-n2nc(C)c3c(C)n(-c4ccc(OC)cc4)nc3c2=O)c1	Zika virus		Vero, MR766		relative to: CC50 over EC50	selectivity index	2.3
CN[C@H](CC(C)C)C(=O)N[C@H]1C(=O)N[C@@H](CC(N)=O)C(=O)N[C@H]2C(=O)N[C@H]3C(=O)N[C@H](C(=O)N[C@H](C(=O)O)c4cc(O)cc(O)c4-c4cc3ccc4O)[C@H](O)c3ccc(c(Cl)c3)Oc3cc2cc(c3O[C@@H]2O[C@H](CO)[C@@H](O)[C@H](O)[C@H]2O[C@H]2C[C@](C)(NCc3ccc(C(=O)OCCCCCCN(Cc4ccccn4)Cc4ccccn4)cc3)[C@H](O)[C@H](C)O2)Oc2ccc(cc2Cl)[C@H]1O	Bacillus subtilis	protein synthesis, refers to: NfrA	168	concentration not given, 10 min, at peak effective concentration	relative to: untreated	regulation factor	2.7 ± 0.2
CN(C)CCCSC(=S)N1CCN(C(=O)/C=C/c2coc3ccccc3c2=O)CC1	PVY	virus inactivation		500 µg/mL, mean		inhibition	73.4%
C[C@@H](c1ccn(Cc2ccc(F)cc2F)n1)[C@](O)(Cn1cnnn1)c1ccc(F)cc1F	Candida tropicalis	growth, broth microdilution	2718	24 h, 30 °C, ≥50% inhibition		MIC	< 0.008 µg/mL
C[N+](C)(CC(=O)Nc1cccc(C(F)(F)F)c1)CC(=O)Nc1cccc(C(F)(F)F)c1	Zika virus		Huh-7		relative to: CC50 over EC50	selectivity index	136

Compound	organism	assay	test system	setting	how to read	measurement	result
CNC1=C([N+](=O)[O-])C2(C(=O)Nc3ccccc32)C2=C(CCCC2=O)O1 (stereo not shown)	Streptococcus pneumoniae		MTCC 655	250 µg/mL, 24 h		growth inhibition	29.1%
Cc1ccc2nc(-c3ccccc3)c(CN3CC[C@H](F)C3)n2c1	Trypanosoma cruzi		3T3 host cells, Tulahuen beta-galactosidase	6 days		EC50	8.61 µM
COC1C=COC2(C)Oc3c(C)c(O)c4c(c3C2=O)C2=NC3(CCN(CC(C)C)CC3)NC2=C(NC(=O)C(C)=CC=CC(C)C(O)C(C)C(O)C(C)C(OC(=O)Nc2cccnn2)C1C)C4=O (stereo not shown)	Mycobacteroides abscessus		ATCC 19977	1-log kill, replicating cultures		MBC	0.06 µM (≈ 0.0556 µg/mL)
CN(C)c1cc(CN2CCc3ccccc3C2)c(O)c2c1C[C@H]1C[C@H]3[C@H](N(C)C)C(O)=C(C(N)=O)C(=O)[C@@]3(O)C(O)=C1C2=O	Streptococcus pneumoniae	microbial growth, broth dilution				MIC	0.125 µg/mL (≈ 0.207 µM)
O=C(Nc1cc2nc(-c3ccccc3)cn2cn1)Oc1cccc([N+](=O)[O-])c1	Trypanosoma cruzi		3T3 host cells, Tulahuen beta-galactosidase	6 days		EC50	9.8 µM
COc1ccc(C2OC(=O)c3ccc(-c4ccccc4)c(O)c32)c(OC)c1OC (stereo not shown)	Naegleria fowleri	parasite growth, resazurin	ATCC30808	48 h		IC90	103 µM
CC[C@H](C)[C@H](NC(=O)[C@H](CCCCN)NC(=O)[C@H](CC(N)=O)NC(=O)[C@H](Cc1c[nH]c2ccccc12)NC(=O)[C@H](Cc1ccccc1)NC(=O)[C@H](CCCCN)NC(=O)[C@H](CCCCNC(=N)N)NC(=O)[C@H](CC(C)C)NC(=O)[C@H](Cc1c[nH]c2ccccc12)NC(=O)[C@H](CCCCN)NC(=O)[C@H](CCCCNC(=N)N)NC(=O)[C@H](CC(C)C)NC(=O)CNC(C)=O)C(=O)N[C@@H](CCCCN)C(=O)N[C@@H](CCCCNC(=N)N)C(N)=O	all bacteria tested					geometric mean MIC	3.51 µM
Cc1ccc(-c2cn([C@@H]3O[C@H](CO)[C@@H](O)[C@H]3O)c3ncnc(N)c23)cc1Cl	Trichomonas vaginalis	resorufin	G3, metronidazole-sensitive	24 h + 2 h, 2% O2		EC50	0.058 ± 0.077 µM
C[C@@H](c1ccn(Cc2ccc(C(C)(C)C)cc2)n1)[C@](O)(Cn1cnnn1)c1ccc(F)cc1F	Candida tropicalis	growth, broth microdilution	2718	24 h, 30 °C, ≥50% inhibition		MIC	< 0.008 µg/mL
CN(C)c1cc(CN2CCCC2)c(O)c2c1C[C@H]1C[C@H]3[C@H](N(C)C)C(O)=C(C(N)=O)C(=O)[C@@]3(O)C(O)=C1C2=O	Streptococcus pneumoniae	microbial growth, broth dilution				MIC	0.25 µg/mL (≈ 0.462 µM)
CCOC(=O)c1c(C(C)C)oc2nc(N3CCN(c4ccccc4)CC3)ccc12	Trypanosoma cruzi		3T3 host cells, Tulahuen beta-galactosidase	6 days		EC50	11 µM
CC[C@H](C)[C@H](N)C(=O)NCC(=O)N1CCC[C@H]1C(=O)N[C@@H](CC(C)C)C(=O)N[C@H](C(=O)N[C@H](C(=O)N1CCC[C@H]1C(=O)N[C@H](C(=O)N[C@@H](C)C(=O)N[C@@H](C)C(=O)N[C@H](C(=O)N[C@@H](CC(C)C)C(N)=O)[C@@H](C)CC)C(C)C)[C@@H](C)CC)C(C)C	Gram-negative bacteria			concentration not given		antibacterial activity	inactive
C=C(C)[C@@H]1CC[C@]2(C(=O)n3ccnc3)CC[C@]3(C)[C@H](CC[C@@H]4[C@@]5(C)CCCNC(C)(C)[C@@H]5CC[C@]43C)[C@@H]12	Human cytomegalovirus	cytopathic effect	HFF, AD169			EC90	> 0.24 µM
COCCNCc1cc(N(C)C)c2c(c1O)C(=O)C1=C(O)[C@]3(O)C(=O)C(C(N)=O)=C(O)[C@@H](N(C)C)[C@@H]3C[C@@H]1C2	Streptococcus pneumoniae	microbial growth, broth dilution				MIC	0.5 µg/mL (≈ 0.918 µM)
Nc1ncnc2c1c(-c1ccc(F)cc1)cn2[C@H]1C[C@H](O)[C@@H](CO)O1	Trichomonas vaginalis	resorufin	G3, metronidazole-sensitive	24 h + 2 h, 2% O2		EC50	0.8 ± 0.086 µM

A few entries again:
Compound	organism	assay	test system	setting	how to read	measurement	result
C[C@@H](c1ccn(Cc2ccc(F)cc2F)n1)[C@](O)(Cn1cnnn1)c1ccc(F)cc1F	Candida tropicalis	growth, broth microdilution	2718	24 h, 30 °C, ≥50% inhibition		MIC	< 0.008 µg/mL
CN(C)CCCSC(=S)N1CCN(C(=O)/C=C/c2coc3ccccc3c2=O)CC1	PVY	virus inactivation		500 µg/mL, mean		inhibition	73.4%
CN[C@H](CC(C)C)C(=O)N[C@H]1C(=O)N[C@@H](CC(N)=O)C(=O)N[C@H]2C(=O)N[C@H]3C(=O)N[C@H](C(=O)N[C@H](C(=O)O)c4cc(O)cc(O)c4-c4cc3ccc4O)[C@H](O)c3ccc(c(Cl)c3)Oc3cc2cc(c3O[C@@H]2O[C@H](CO)[C@@H](O)[C@H](O)[C@H]2O[C@H]2C[C@](C)(NCc3ccc(C(=O)OCCCCCCN(Cc4ccccn4)Cc4ccccn4)cc3)[C@H](O)[C@H](C)O2)Oc2ccc(cc2Cl)[C@H]1O	Bacillus subtilis	protein synthesis, refers to: NfrA	168	concentration not given, 10 min, at peak effective concentration	relative to: untreated	regulation factor	2.7 ± 0.2
COc1cc(/C=C/c2cc(/C=C/c3ccc(O)c(OC)c3)[nH]n2)ccc1O	Spodoptera frugiperda	cell growth or viability, MTT	Sf9	100 µM, 72 h		inhibition	71.3%
